Published values from different studies.
Lines come from different studies, so protocols differ. ± marks the error that the study gave.
UniProt P24530, sequence (whole entry, looked up): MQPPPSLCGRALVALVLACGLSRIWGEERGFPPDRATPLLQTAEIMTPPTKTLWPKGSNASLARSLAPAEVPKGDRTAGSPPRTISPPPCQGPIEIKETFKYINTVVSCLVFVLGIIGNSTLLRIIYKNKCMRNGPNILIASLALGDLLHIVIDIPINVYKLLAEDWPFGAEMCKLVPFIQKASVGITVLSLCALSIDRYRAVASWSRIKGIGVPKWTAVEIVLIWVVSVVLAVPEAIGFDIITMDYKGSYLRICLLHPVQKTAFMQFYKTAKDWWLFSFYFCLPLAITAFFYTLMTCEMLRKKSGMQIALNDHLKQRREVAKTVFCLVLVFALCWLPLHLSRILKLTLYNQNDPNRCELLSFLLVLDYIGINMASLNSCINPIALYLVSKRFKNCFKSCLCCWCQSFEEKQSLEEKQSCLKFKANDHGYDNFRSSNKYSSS
UniProt Q9Y570, sequence (whole entry, looked up): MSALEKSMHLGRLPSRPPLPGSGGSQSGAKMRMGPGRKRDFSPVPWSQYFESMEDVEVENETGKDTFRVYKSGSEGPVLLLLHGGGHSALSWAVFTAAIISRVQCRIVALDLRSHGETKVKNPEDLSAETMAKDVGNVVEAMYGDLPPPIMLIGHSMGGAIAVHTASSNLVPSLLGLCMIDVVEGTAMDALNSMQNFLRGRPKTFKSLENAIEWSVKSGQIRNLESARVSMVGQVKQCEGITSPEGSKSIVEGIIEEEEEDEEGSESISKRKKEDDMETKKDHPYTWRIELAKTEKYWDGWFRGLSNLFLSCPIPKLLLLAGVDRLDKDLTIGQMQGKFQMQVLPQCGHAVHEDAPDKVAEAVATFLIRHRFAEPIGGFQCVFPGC
UniProt P20815, sequence (whole entry, looked up): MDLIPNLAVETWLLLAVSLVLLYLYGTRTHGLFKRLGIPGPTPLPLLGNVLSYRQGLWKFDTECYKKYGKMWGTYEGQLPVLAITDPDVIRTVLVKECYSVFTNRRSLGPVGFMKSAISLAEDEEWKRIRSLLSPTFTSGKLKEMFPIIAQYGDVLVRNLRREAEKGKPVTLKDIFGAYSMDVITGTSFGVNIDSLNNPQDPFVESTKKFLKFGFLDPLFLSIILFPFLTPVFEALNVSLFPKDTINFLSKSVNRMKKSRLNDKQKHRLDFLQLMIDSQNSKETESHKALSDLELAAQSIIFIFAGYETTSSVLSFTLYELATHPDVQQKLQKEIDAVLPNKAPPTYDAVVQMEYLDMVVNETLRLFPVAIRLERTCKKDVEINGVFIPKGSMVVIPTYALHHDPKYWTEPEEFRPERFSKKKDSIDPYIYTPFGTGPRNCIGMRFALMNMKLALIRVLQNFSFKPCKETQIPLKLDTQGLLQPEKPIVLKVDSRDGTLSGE
UniProt P51956, sequence (whole entry, looked up): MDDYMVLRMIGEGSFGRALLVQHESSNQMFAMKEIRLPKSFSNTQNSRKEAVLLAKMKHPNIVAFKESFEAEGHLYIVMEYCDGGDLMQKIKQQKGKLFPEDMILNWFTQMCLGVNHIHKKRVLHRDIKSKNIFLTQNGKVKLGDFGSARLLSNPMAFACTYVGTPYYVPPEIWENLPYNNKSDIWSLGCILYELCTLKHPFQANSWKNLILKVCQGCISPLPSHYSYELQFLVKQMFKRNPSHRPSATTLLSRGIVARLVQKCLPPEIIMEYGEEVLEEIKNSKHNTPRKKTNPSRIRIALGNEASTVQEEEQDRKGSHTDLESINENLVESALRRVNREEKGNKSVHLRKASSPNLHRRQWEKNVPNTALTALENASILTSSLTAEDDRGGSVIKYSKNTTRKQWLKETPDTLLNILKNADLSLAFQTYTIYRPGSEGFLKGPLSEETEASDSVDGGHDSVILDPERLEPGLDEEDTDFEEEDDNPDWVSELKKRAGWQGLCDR

Compound = COc1cc2c(Oc3ccc4[nH]c(C)cc4c3F)ccnc2cc1OCC1(N)CC1; test system = paediatric recurrent refractory sarcoma; setting = 10 mg; measurement = grade 3 Hyperuricemia; value = 0%
Compound = CCCCCCCCCCCCCCCC(=O)N[C@@H](CCC(=O)NCCCC[C@H](NC(=O)[C@H](CC(=O)O)NC(=O)[C@H](CO)NC(=O)[C@@H](NC(=O)[C@H](Cc1ccccc1)NC(=O)[C@@H](NC(=O)CNC(=O)[C@H](CCC(N)=O)NC(=O)[C@H](CO)NC(=O)[C@@H](N)Cc1c[nH]cn1)[C@@H](C)O)[C@@H](C)O)C(=O)N[C@@H](CO)C(=O)N[C@@H](CCC(=O)O)C(=O)N[C@@H](Cc1ccc(O)cc1)C(=O)N[C@@H](CC(C)C)C(=O)N[C@@H](CC(=O)O)C(=O)N[C@@H](CO)C(=O)N[C@@H](CCC(=O)O)C(=O)N[C@@H](CCCNC(=N)N)C(=O)N[C@@H](C)C(=O)N[C@@H](CCCNC(=N)N)C(=O)N[C@@H](CC(=O)O)C(=O)N[C@@H](Cc1ccccc1)C(=O)N[C@H](C(=O)N[C@@H](C)C(=O)N[C@@H](Cc1c[nH]c2ccccc12)C(=O)N[C@@H](CC(C)C)C(=O)N[C@@H](CCC(=O)O)C(=O)N[C@@H](C)C(=O)NCC(=O)NCC(=O)O)C(C)C)C(=O)O; test = measured: Nausea; test system = humans CrCl below 20 mL/min; setting = subcutaneous, 100 µg single dose; measurement = treatment-related adverse events; value = 33.3%
Compound = CC[C@H](C)[C@@H]1NC(=O)[C@@H]2CCCN2C(=O)[C@H](CC(C)C)NC(=O)[C@H](CC(C)C)NC(=O)CNC(=O)[C@@H](NC(=O)[C@@H](NC(=O)[C@H](CC(=O)O)NC(=O)CNC(=O)[C@@H](NC(=O)[C@H](C)NC(=O)CNC(=O)[C@H](CCCCN)NC(=O)[C@H](CC(C)C)NC(=O)[C@H](CC(C)C)NC(=O)[C@H](CCCCN)NC(=O)CNC(=O)[C@@H](NC(=O)[C@@H](N)CC(C)C)C(C)C)C(C)C)C(C)C)CSSC[C@@H](C(=O)O)NC1=O; test = RNA-seq, measured: Mmp19; test system = mouse, traumatic brain injury model, frontal cortex and hippocampus; setting = dose not given; how to read = baseline: TBI alone; measurement = log2 fold change; value = -2.14
Compound = CC(C)CC(=O)OC[C@H]1O[C@@](C#N)(c2ccc3c(N)ncnn23)[C@H](O)[C@@H]1O; target or system = Cytochrome P450 3A5 (CYP3A5, Homo sapiens, UniProt P20815); test = metabolic stability; test system = recombinant enzyme; setting = 1 µM; measurement = intrinsic clearance; value = 0.695 ± 0.0269 µL/min/pmol
Compound = COc1ccc(N2C(=O)N(c3c(C)cccc3Cl)Cc3cnc(Nc4ccc(C5CCN(C)CC5)cc4OC)nc32)nc1; target or system = NEK3 (Homo sapiens, UniProt P51956); test = kinase activity; setting = 0.5 µM; measurement = inhibition; value = 3.69%
Compound = COc1cc(Nc2ncc(F)c(Nc3ccc4c(n3)NC(=O)C(C)(C)O4)n2)cc(OC)c1OC; target or system = EDNRB (Homo sapiens, UniProt P24530); measurement = IC50; value = > 10 µM
Compound = N[C@@H]1c2ccccc2OC12CCN(c1cnc3c(N4CCCc5ncccc54)n[nH]c3n1)CC2; test system = advanced solid tumour patients; setting = oral, 10 mg once daily; measurement = serious TEAE grade ≥3; value = 0%
Compound = O[C@H]1CCCN[C@@H]1CCCn1cnc2c(Cl)c(Cl)ccc21; test system = healthy humans, plasma; setting = oral, 150 mg, together with: nintedanib 150 mg; measurement = terminal half-life; value = 4.17 h
Compound = CC(C)C[C@H](NC(=O)[C@H](CCCCN)NC(=O)OCC1c2ccccc2-c2ccccc21)C(=O)N[C@H](C(=O)N[C@@H](Cc1ccccc1)C(=O)N[C@@H](Cc1ccccc1)C(=O)N[C@@H](CCCCN)C(=O)NCC(=O)N[C@@H](Cc1ccccc1)C(=O)N[C@@H](C)C(=O)N[C@@H](Cc1c[nH]c2ccccc12)C(=O)N[C@@H](CC(N)=O)C(=O)N[C@H](C(=O)N[C@H]1CSSC[C@@H](C(=O)N[C@@H](Cc2c[nH]cn2)C(=O)N[C@@H](CCCNC(=N)N)C(=O)N[C@@H](CCCNC(=N)N)C(=O)N[C@@H](C)C(=O)N[C@@H](CC(N)=O)C(N)=O)NC(=O)[C@H](C(C)C)NC(=O)[C@H](CCCNC(=N)N)NC(=O)[C@H](C(C)C)NC(=O)CNC(=O)[C@H](CC(N)=O)NC(=O)[C@H](CCCNC(=N)N)NC(=O)[C@H](Cc2ccc(O)cc2)NC(=O)[C@H](C(C)C)NC1=O)C(C)C)C(C)C; test system = ICR mice, blood; setting = intraperitoneal, 5 mg/kg, day 5; measurement = platelet distribution width; value = 15.8 ± 0.33%
Compound = CCS(=O)(=O)Nc1ccc(Oc2ccc(F)cc2F)c(-c2cn(C)c(=O)c3[nH]ccc23)c1; test = parainfluenza infection leading to discontinuation; test system = human, relapsed/refractory AML; setting = oral, dose not given; measurement = treatment-emergent adverse events; value = 0%
Compound = CC(C)c1nc(N(C)S(C)(=O)=O)nc(-c2ccc(F)cc2)c1/C=C/[C@@H](O)C[C@@H](O)CC(=O)O; test system = healthy human subjects; setting = oral, dose not given, study CL-0537 safety set; measurement = incidence of eye disorders; value = 3.6%
Compound = C[C@@H](O)[C@@H](CO)NC(=O)[C@@H](CCCNC(=N)N)NC(=O)[C@@H]1CCCN1C(=O)[C@@H]1CSSC[C@H](NC(=O)[C@H](Cc2ccccc2)NC(=O)CN2CCN(CC(=O)O)CCN(CC(=O)O)CCN(CC(=O)O)CC2)C(=O)N[C@@H](Cc2ccc(O)cc2)C(=O)N[C@@H](Cc2ccccc2)C(=O)N[C@@H](CCC(N)=O)C(=O)N[C@@H](CC(N)=O)C(=O)N1 [gallium-68 labelled]; test system = Wistar rat, adrenals; setting = intravenous, 8 MBq, 60 min, group mean; measurement = tissue uptake; value = 0.09 %ID/g
Compound = CO[C@H]1C[C@@H]2CC[C@@H](C)[C@@](O)(O2)C(=O)C(=O)N2CCCC[C@H]2C(=O)O[C@H]([C@H](C)C[C@@H]2CC[C@@H](OC(=O)NCCOCCOCCOCCOCCOCCOCCOCCOCCC(=O)N3CCc4cc(Cn5nc(-c6ccc7oc(N)nc7c6)c6c(N)ncnc65)ccc4C3)[C@H](OC)C2)C[C@@H](O)[C@H](C)/C=C(\C)[C@@H](O)[C@@H](OC)C(=O)[C@H](C)C[C@H](C)/C=C/C=C/C=C/1C; test system = patients with advanced solid tumours; setting = intravenous, 8 mg weekly, any grade; measurement = pneumonia AE leading to dose reduction; value = 0%
Compound = CC[C@H](C)CCCCC(=O)N[C@@H](CCN)C(=O)N[C@H](C(=O)N[C@@H](CCN)C(=O)N[C@H]1CCNC(=O)[C@H]([C@@H](C)O)NC(=O)[C@H](CCN)NC(=O)[C@H](CCN)NC(=O)[C@H](CC(C)C)NC(=O)[C@@H](Cc2ccccc2)NC(=O)[C@H](CCN)NC1=O)[C@@H](C)O; test system = critically ill patients, plasma; setting = intravenous, 2.1 mg/kg/day, 24 h, median; measurement = AUC steady state; value = 78300 ng·h/mL
Compound = C[C@]1(CO)Cc2ncn(-c3ccc(C#N)c(Cl)c3)c2C(=O)O1; test system = human; setting = 20 mg single dose; measurement = subjects with severe TEAEs; value = 0%
Compound = Cc1c(C(=O)O)ccc2c3n(nc12)[C@@H]1[C@H](C3)N(CC2CC2)[C@@]2(C(=O)Nc3cc(Cl)ccc32)[C@H]1c1cccc(Cl)c1F; test system = athymic nude mice, orthotopic brain tumour PDX, tumour; setting = 2 mg/kg single, 24 h; measurement = tumour concentration; value = 29 ± 11 nM
Compound = O=C(Nc1ccccc1)C1CCN(C(=O)Oc2cccnc2)CC1; test system = healthy women; setting = oral, 60 mg, 7 days; measurement = adverse event Dizziness; value = 42.9%
Compound = O=C(c1ccc(Cl)cc1)N1CCN2C(=O)N(OC(=O)N3CCOc4ccccc43)C(=O)C2C1 (stereo not shown); target or system = Protein phosphatase methylesterase 1 (Homo sapiens, UniProt Q9Y570); test = MS-based ABPP; test system = SW-620 conditioned medium; setting = 10 µM, 1 h, 37 °C; how to read = baseline: compound over DMSO, lower = more inhibition; measurement = median protein ratio; value = 1
Compound = N=C(N)NCCC[C@@H](NC(=O)[C@@H](N)Cc1ccccc1)C(=O)N[C@@H](Cc1ccccc1)C(=O)N[C@@H](CCCCN)C(N)=O; test = LC-MS; test system = human; setting = 15 mg, 11.83 h; measurement = median amount excreted in urine; value = 1.2e+06 ng

Repeated from above:
Compound = COc1ccc(N2C(=O)N(c3c(C)cccc3Cl)Cc3cnc(Nc4ccc(C5CCN(C)CC5)cc4OC)nc32)nc1; target or system = NEK3 (Homo sapiens, UniProt P51956); test = kinase activity; setting = 0.5 µM; measurement = inhibition; value = 3.69%
Compound = N[C@@H]1c2ccccc2OC12CCN(c1cnc3c(N4CCCc5ncccc54)n[nH]c3n1)CC2; test system = advanced solid tumour patients; setting = oral, 10 mg once daily; measurement = serious TEAE grade ≥3; value = 0%
Compound = CC(C)C[C@H](NC(=O)[C@H](CCCCN)NC(=O)OCC1c2ccccc2-c2ccccc21)C(=O)N[C@H](C(=O)N[C@@H](Cc1ccccc1)C(=O)N[C@@H](Cc1ccccc1)C(=O)N[C@@H](CCCCN)C(=O)NCC(=O)N[C@@H](Cc1ccccc1)C(=O)N[C@@H](C)C(=O)N[C@@H](Cc1c[nH]c2ccccc12)C(=O)N[C@@H](CC(N)=O)C(=O)N[C@H](C(=O)N[C@H]1CSSC[C@@H](C(=O)N[C@@H](Cc2c[nH]cn2)C(=O)N[C@@H](CCCNC(=N)N)C(=O)N[C@@H](CCCNC(=N)N)C(=O)N[C@@H](C)C(=O)N[C@@H](CC(N)=O)C(N)=O)NC(=O)[C@H](C(C)C)NC(=O)[C@H](CCCNC(=N)N)NC(=O)[C@H](C(C)C)NC(=O)CNC(=O)[C@H](CC(N)=O)NC(=O)[C@H](CCCNC(=N)N)NC(=O)[C@H](Cc2ccc(O)cc2)NC(=O)[C@H](C(C)C)NC1=O)C(C)C)C(C)C; test system = ICR mice, blood; setting = intraperitoneal, 5 mg/kg, day 5; measurement = platelet distribution width; value = 15.8 ± 0.33%
